Results of several laboratories.
Parts stem from different laboratories: compare values within a part only. Substitutions count along the parent as printed.

Series 1
Target: RING finger protein unkempt homolog, zinc fingers 1-6, SBP tag (UNK, Homo sapiens, UniProt Q9C0B0, residues 30-357)
Sequence of UniProt Q9C0B0 (30-357, looked up): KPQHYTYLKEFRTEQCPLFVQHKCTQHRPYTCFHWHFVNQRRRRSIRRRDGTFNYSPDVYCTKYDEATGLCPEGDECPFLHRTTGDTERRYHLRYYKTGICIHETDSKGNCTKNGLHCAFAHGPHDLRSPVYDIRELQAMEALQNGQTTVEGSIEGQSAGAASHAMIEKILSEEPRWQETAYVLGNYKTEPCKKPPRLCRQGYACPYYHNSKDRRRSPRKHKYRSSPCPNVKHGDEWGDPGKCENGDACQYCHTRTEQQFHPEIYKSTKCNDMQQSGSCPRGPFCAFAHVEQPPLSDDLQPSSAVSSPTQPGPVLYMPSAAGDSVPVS
Technique: RNA Bind-n-Seq
Form: RNA
Matrix: in vitro
Tested at: 100 nM
Setting: RNA with constant flanks, vertebrate orthologous sites, ends assumed
Relative to: input RNA pool
Direction: higher = stronger binding
All sequences stand within: GGGAGUUCUACAGUCCGACGAUC … CAACAGAGGAUUGAGCAUCA
`UGAGCAUACAUAUACAAUGUGUAUCAAAUGCUGGUUGUAAAAUUAAACCAUCAUCUAGAAUAGAGUUAAUUUGUUUUAAUCAAGCUACAAAUAGGUUUUCUUAAACCAGAGAUGCACUGC` has a bound/input enrichment of 0.436 ratio.
With `UACUAGUAUCCUACCAGCCUACCAACCUCGCGUCUGUGCACAGCUUCAAACGUUACCGUCUAGCUAGAUUUUUAUUUAAAAUAUGAAAAACUGCUUUUCCCAAGACGUUUUUUAAAAACA` the bound/input enrichment was 1.33 ratio.
For `UCUCUCACAUAACUGAGUCCAAAAUUGCUAUGAGGGUUUGAAACAUUCAUUAGUUUUGUGUAGAACUACACUGUCAGGUGCUCAAAUACCAUCAUAGCAAGAUCAAAUACCAUCACAGUA`, the bound/input enrichment was 0.477 ratio.
`CCAACCUCUACAGUGUCCCUCGUACAGGGACAUAUUUCAUACCAUCCCGAGGACCUGCACUUAAAACGUUUUUUUAAUUGUUAUACGGGAAGAUAUGUGUCUUUAAAACACCAUCUCGAA` has a bound/input enrichment of 0.284 ratio.
For `CUGUUGUUAAGCACUGUGUUCCAGACCGUGUCUGACUUUAGUGUAACCUAGGAGAUUUUAUAGUUUUAUUUUAAUGAAAUCCUGAUUGGUGCAGCGCAGUGGGAAAAGCAGUGUCUUUCA`, the bound/input enrichment was 2.19 ratio.
The bound/input enrichment of `AAAAUAGGUUCUGCUCCAUUAAGAGAGUAAAACUAGUCCCUCAAAUAUAAAACUCCUAAAUAGCUAUUUUUAAAAUAAUAUUUAAAUUUUAUAAAGCACCUAAUGCCACACCACAACUGU` is reported as 1.17 ratio.
`UAUAAUUAUGAAAAUCUAAAGGAUUUUUAAUGUUUAAUUUCCCCCAGCAUAUAUAUUAAGACCUCUUUUUCCAGGCAGAUCAUUCAGAGUGUGCGAGUGUGUGUGCACAUGUUACAAAGA` gave a bound/input enrichment of 0.599 ratio.
For `GUUGCGACCCAUUUAACAUACAUAAAAAGCUGGCCAAAAAGAACCUGCAUGUCAUUGACUUGGACGAUGCCACUUUUCUGAGUGCAAAAUUCGGAAGGCAGCUGGUGCCUGGUUGGAAGC`, the bound/input enrichment was 0.4 ratio.

Series 2
Target: CCNB1, cyclin fold, Cln2 fusion (human)
Technique: yeast growth competition, sequencing
Matrix: yeast
Setting: weak parent motif
Relative to: not given
Direction: higher = stronger binding
Starting sequence: GMNC docking peptide (human); KNAKRNLSSEFAN
Under “normalised enrichment score”, `S9W` is recorded as 0.336.
Under “normalised enrichment score”, `R5L` is recorded as -0.0534.
`F11D` — result for “normalised enrichment score”: 0.783.
Under “normalised enrichment score”, `N6R` is recorded as 0.277.
`S8K`: “normalised enrichment score” 0.443.
`S8G` — result for “normalised enrichment score”: 0.466.
`N2Y`: “normalised enrichment score” 0.611.
Under “normalised enrichment score”, `N2M` is recorded as 0.0688.
`R5C` — result for “normalised enrichment score”: -0.0267.
`L7V`: “normalised enrichment score” 0.0923.
`A3S` — result for “normalised enrichment score”: 1.43.
For `S9K`, “normalised enrichment score” read 0.073.
`E10A`: “normalised enrichment score” 0.0142.
Under “normalised enrichment score”, `A12W` is recorded as 0.161.
`K4S` — result for “normalised enrichment score”: 0.212.

Series 3
Target: RNA binding protein fox-1 homolog 2, RRM domain, GST-SBP tag (RBFOX2, Homo sapiens, UniProt O43251-10, residues 100-194)
Technique: RNA Bind-n-Seq
Form: RNA
Matrix: in vitro
Tested at: 365 nM
Setting: natural RNA segment, single round, ends assumed
Relative to: no-protein control
Direction: higher = stronger binding
All sequences stand within: GGGAGUUCUACAGUCCGACGAUC … UGGAAUUCUCGGGUGCCAA
Residues (chain): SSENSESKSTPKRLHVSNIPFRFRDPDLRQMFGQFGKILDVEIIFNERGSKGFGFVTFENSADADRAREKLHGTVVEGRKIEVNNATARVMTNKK
For `UUGUAGGAGGACAUAUAAUUCAUAUGCUAUGUUGUACAUUUUAUGGAAAUAUAAAAGAAUCCCACAUUAUUUUAUAGAGUACUUCAGGAGCAUCCUAAGUGUUAAGGCUG`, “RBNS enrichment (R)” read 0.35.
For `CACUCAUGUCAAUCAUAUCUAUGAGACAAAUGUCUCCGAUGCUCUUCUGCGUAAAUUAAAUUGUGUACUGAAGGGAAAAGUUUGAUCAUACCAAACAUUUCCUAAACUCU`, “RBNS enrichment (R)” read 0.309.
For `AACGAGGCCCAAGAAAAAAUGGAAGCUGGGGGCAGAGAGUCCAGGAGGCCCCCAUGCUGUCUGAGGGGAGGCCGGCAUAGCCCCUCCUCGACUGUCGCCUGAGCAGCUGA`, “RBNS enrichment (R)” read 0.637.
`UUAGGGAUGGGAUGAGUGGGAGGAAGCCCUUUGAGAAGGGGGAGCCGGCCCUGUCAUGCGCAGGUUUUCCACUCAUCUGAGGAAGAGCCAGGGCUCUGAAUUUAGCCUAA`: “RBNS enrichment (R)” 0.427.
For `CAGCUGCGCCCCCCUCCCAUCCUUUCCUAUGAGAAGCCACUGCUUUGGGGGCGCCGGCUAGAAAAAGUAGGGUGCGGUGGCCAGGAGGGCCCCUGCCGCGCGGGGGGCUG`, “RBNS enrichment (R)” read 0.365.
For `UGCUAGUAAAUGGAGCUUUGUACAUAGUCAUUGUGAUGUCUUGGCUGCCCGGACACCACGUAAACAUAACACUAAAGAAACUGUCCUGGAGAUCCCAUCCUGCUACUAAG`, “RBNS enrichment (R)” read 0.542.
`UGUAAAUAGAAUUGCAACUGUCAGGUUUUGUGUUCUUGUUUUCCUUUAGUUGGGUUUAUUUCCAGGUCACAGAAUUGCUGUUAACACUAGAAAACACACUUCCUGCACCA` — result for “RBNS enrichment (R)”: 0.994.
Under “RBNS enrichment (R)”, `UUCUUCCAGAGGAUGCAUUUGGAUCCCAGAGGAGUGUUUUCUGGAAGACAAUCUUUCAACAUCCCUACAUUCCUGAUAUGAAGCAGGAAUUUGCACAUGGUGUAGAGAGC` is recorded as 0.452.

Other studies, line by line
`PhoQ, residues 284 288 289 292 302 303 TLMATV` gave a fold induction of 24.5 (PhoP, residues 12 14 15 18 19 SGWQI (Escherichia coli, UniProt P23836); Sort-seq, item: YFP reporter; E. coli; PhoQ-PhoP variant library, together with: 10 µM Mg2+; relative to: high Mg2+ state, higher = stronger signaling).

A few entries again (series 1):
For `CUGUUGUUAAGCACUGUGUUCCAGACCGUGUCUGACUUUAGUGUAACCUAGGAGAUUUUAUAGUUUUAUUUUAAUGAAAUCCUGAUUGGUGCAGCGCAGUGGGAAAAGCAGUGUCUUUCA`, the bound/input enrichment was 2.19 ratio.
For `UCUCUCACAUAACUGAGUCCAAAAUUGCUAUGAGGGUUUGAAACAUUCAUUAGUUUUGUGUAGAACUACACUGUCAGGUGCUCAAAUACCAUCAUAGCAAGAUCAAAUACCAUCACAGUA`, the bound/input enrichment was 0.477 ratio.
`UGAGCAUACAUAUACAAUGUGUAUCAAAUGCUGGUUGUAAAAUUAAACCAUCAUCUAGAAUAGAGUUAAUUUGUUUUAAUCAAGCUACAAAUAGGUUUUCUUAAACCAGAGAUGCACUGC` has a bound/input enrichment of 0.436 ratio.
